Experimental data collected from several papers.
Lines come from different studies, so protocols differ.
B1: FII (bacteriophage lambda, UniProt P03714); sequence looked up; chain MADFDNLFDAAIARADETIRGYMGTSATITSGEQSGAVIRGVFDDPENISYAGQGVRVEGSSPSLFVRTDEVRQLRRGDTLTIGEENFWVDRVSPDDGGSCHLWLGRGVPPAVNRRR
B2: Rep helicase domain 210-536 (adeno-associated virus 2, UniProt P03132); chain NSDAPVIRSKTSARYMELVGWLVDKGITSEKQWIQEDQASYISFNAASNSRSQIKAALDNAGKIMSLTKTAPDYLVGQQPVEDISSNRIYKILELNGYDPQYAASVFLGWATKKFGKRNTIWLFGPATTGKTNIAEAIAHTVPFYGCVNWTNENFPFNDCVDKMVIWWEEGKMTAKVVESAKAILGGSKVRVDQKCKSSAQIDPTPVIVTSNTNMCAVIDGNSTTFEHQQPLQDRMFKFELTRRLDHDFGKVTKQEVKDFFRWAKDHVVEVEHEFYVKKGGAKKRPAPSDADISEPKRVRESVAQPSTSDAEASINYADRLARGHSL
B3: pyrE (Burkholderia cenocepacia, UniProt B4E589); sequence looked up; chain MTGYDRQSISDTTAKILLEVQAVHFNAEKPFIFTSGWASPVYIDCRKLISYPRVRRALMEMAETTITRDIGFEQIDAVAGGETAGIPFAAWIADRMMVPMQYVRKKPKGFGRNAQIEGHLEEGSRVLLVEDLTTDSRSKINFVNALRTAGATVNHCFVLFHYNIFKESVSVLKDIDVDLHALATWWDVLRVAKASGYFETKTLDEVEKFLHAPAEWSAAHGGATAPKE
B4: mutL 460-658 (Neisseria gonorrhoeae, UniProt Q5F8M6); chain SQSELPPLGFAIAQLLGIYILAQAEDSLLLIDMHAAAERVNYEKMKRQRQENGNLQSQHLLIPVTFAASHEECAALADHAETLAGFGLELSDMGGNTLAVRAAPVMLGKSDVVSLARDVLGELAQVGSSQTIASHENRILATMSCHGSIRAGRRLTLPEMNALLRDMENTPRSNQCNHGRPTWVKLTLKELDTLFLRGQ
B5: panD E119A (Mycobacterium abscessus, UniProt B1MGV7); chain MMFRTMMKSKIHRATVTHADLHYVGSVTIDPDLMEAADLLEGEQVTIVDIDNGARLETYAITGTRGSGVIGINGAAAHLVHPGDLVIIIAYGVMTDEEARAFTPRVVFVDSDNKQVELGAHSDDPAYVPENFGLVSPRGLV
B6: mpr (Mycobacterium smegmatis, UniProt Q50442); chain MTTPQPYPGMPSQPAPQGVPYPPQQPAKKKRKWPAIVGGVIALMIVGSIFNDDKKDTTPAENTATVAQAPAAAPTKEVPETTATINTPVRDGKFEFVVRSVEPGLSEVGDNPFLNQKAQGQFVIVTLSVQNIGDRPQGFSPSNQKLFDTEGRSFETDTSAQIALDNNDIAVWDNINPGNTVDVSLVYDMPVDAVPASIELHDSMFSGGVTVNLTP
B7: PALB2 1-195 I195W (Homo sapiens, UniProt Q86YC2); chain MDEPPGKPLSCEEKEKLKEKLAFLKREYSKTLARLQRAQRAEKIKHSIKKTVEEQDCLSQQDLSPQLKHSEPKNKICVYDKLHIKTHLDEETGEKTSITLDVGPESFNPGDGPGGLPIQRTDDTQEHFPHRVSDPSGEQKQKLPSRRKKQQKRTFISQERDCVFGTDSLRLSGKRLKEQEEISSKNPARSPVTEW
B8: ClpP2 (Pseudomonas aeruginosa, UniProt Q9HYR9); sequence looked up; chain MKTDDKDREGGDSHGAIGAKLMEYALKVRKVFVTGGVDEKMAKDVVQQLHILASISDDPIYMFVNSPGGHVESGDMIFDAIRFITPKVIMIGSGSVASAGALIYAAADKENRYSLPNTRFLLHQPSGGIQGPASNIEIYRREIVRMKERLDRIFAEATGQTPEKISADTERDFWLNAEEAVQYGLVNKIIVSEREITLPGQ
B9: aer2 A184C/Q282C (Pseudomonas aeruginosa, UniProt Q9I6V6); chain MGLFNAHAVAQQRADRIATLLQSFADGQLDTAVGEAPAPGYERLYDSLRALQRQLREQRAELQQVESLEAGLAEMSRQHEAGWIDQTIPAERLEGRAARIAKGVNELVAAHIAVKMKVVSVVTAYGQGNFEPLMDRLPGKKAQITEAIDGVRERLRGAAEATSAQLATAAYNARIKSALDNVSCNVMIADNDLNIIYMNRTVSEMLGRAEADIRKQLPNFDAGRLMGANIDVFHKNPAHQRHLLANLTGVHKAELNLGGRRFSLDVVPVFNDANERLGSAVCWTDRTEEHRAEQEVSQLVQAAAAGDFSKRVEEAGKEGFFLRLAKDLNSLVDTADRGLRDVSRMLGALAQGDLTQRIEADYQGTFGQLKDFSNDTAQSLSRMLGQIREAADTINTAASEIASGNAELSARTEQQASSLEETASSMEELTSTVKLNAENARQANSLAANASEVATQGGTVVQKVVSTMSSINESARKIADIIGVIDGIAFQTNILALNAAVEAARAGEQGRGFAVVAGEVRTLAQRSAAAAKEIKTLISDSVDKVENGNTLVAQAGQTMSDIVVAIRRVTDIMSEIAAASAEQSTGIEEVNSAVSQMDDMTQQNAALVEEAAAAAEAMQEQAGLLNQSVAVFRLDTPPSVVQLASARPSAPRPSAPAPLARSGMARASKARKEDGWEEF
B10: ychJ (Salmonella enterica, UniProt A0A2X4TUW2); sequence looked up; chain MSQPCPCGSGDEYSLCCGRIVSGERVAPDPSHLMRSRYCAFVMKDADYLIKSWHPTCNAAAFRDDIIAGFANTKWLGLTIFEHNWSEAGNTGYVSFIARFSEQGKIGAIIERSRFIKENGQWYYIDGTRPQLGRNDPCPCGSGKKFKKCCGQ
B11: ilvA 1-422 (Staphylococcus aureus, UniProt Q2FF63); sequence looked up; chain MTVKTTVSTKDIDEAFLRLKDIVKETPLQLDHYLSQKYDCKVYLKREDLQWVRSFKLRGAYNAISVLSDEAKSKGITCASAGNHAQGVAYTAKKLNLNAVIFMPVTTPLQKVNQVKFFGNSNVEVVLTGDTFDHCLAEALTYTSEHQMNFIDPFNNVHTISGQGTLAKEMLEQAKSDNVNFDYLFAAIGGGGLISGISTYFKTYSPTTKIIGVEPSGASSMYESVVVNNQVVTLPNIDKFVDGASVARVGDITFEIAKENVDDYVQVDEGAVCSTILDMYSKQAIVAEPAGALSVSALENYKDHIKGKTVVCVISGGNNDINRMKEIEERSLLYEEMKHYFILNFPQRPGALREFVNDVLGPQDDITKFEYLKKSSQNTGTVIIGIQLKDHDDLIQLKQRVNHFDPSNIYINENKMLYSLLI

B1 (FII)  subunits per oligomer (itself; cryo-EM): 6
B2 (Rep helicase domain 210-536)  subunits per oligomer (itself; averages, 2D class, cryo-EM): 7
B3 (pyrE)  subunits per oligomer (itself; crystal structure): 2
B4 (mutL 460-658)  subunits per oligomer (itself; SEC-MALS): 2
B5 (panD E119A)  subunits per oligomer (itself; native gel): 4
B6 (mpr)  subunits per oligomer (itself; cross-linking): 4
B7 (PALB2 1-195 I195W)  subunits per oligomer (itself; SEC-MALS): 2
B8 (ClpP2)  subunits per oligomer (itself; cryo-EM): 7
B9 (aer2 A184C/Q282C)  subunits per oligomer (itself; cross-linking): 2
insulin human  fold change (item: KCNMA1 mRNA; EcoHIV-infected mouse, brain; i.p., dose not given; reference: PBS): 1.02
B10 (ychJ)  subunits per oligomer (itself; cross-linking; with: H2O2): 2
B11 (ilvA 1-422)  subunits per oligomer (itself; SEC): > 4
protein (Mycolicibacterium smegmatis, UniProt A0QS64)  subunits per oligomer (itself; cryo-EM): 2

Repeated from above:
B9 (aer2 A184C/Q282C)  subunits per oligomer (itself; cross-linking): 2
